Measured values from different studies.
Every numbered part comes from another study and shows a few of its results, in no order.

Series 1 — technique: RNA Bind-n-Seq; form: RNA; sample: in vitro; tested at: 365 nM; reference: no-protein control; direction: higher = stronger binding; quantity: RBNS enrichment (R)
Target: RNA binding protein fox-1 homolog 2, RRM domain, GST-SBP tag (RBFOX2, Homo sapiens, UniProt O43251-10, residues 100-194)
Notes: natural RNA segment, single round, ends assumed
Constant ends, left off below: GGGAGUUCUACAGUCCGACGAUC … UGGAAUUCUCGGGUGCCAA
Target sequence (chain): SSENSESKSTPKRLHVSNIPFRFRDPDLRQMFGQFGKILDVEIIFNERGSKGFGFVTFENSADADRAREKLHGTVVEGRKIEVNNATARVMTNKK
CCAUUUCUCUUUGUAGAUAAAAAGCAUUAUCUAUGAUUGUUGUAUAAUAAAUUGAUUUUUACAUUAAUGCAUGUUGCGAGUUUUAUUUGGUUCAAAGCAGUUAAAAUGUA: 2.83
GUGGAUUUUUUUAACUAUUAUUCAAAAGCAAAACUGAGUUUUGUUUUGUUUGGUUUUUUAAGAAGAAUUUAUAUCCGGGUUUAGUGUUUAUCAUAUAUAUGGGUACUCUG: 0.43
UGAUCCCCCUCUCCCAUUUAUUCCCUUGAAGGUGCCCUUGUAUUCCUAAUCUGAUCUAAGAAGCUGCUGUAGAGUCAGAAGUAGCUUCUGUGUGAAACUUAUAUUUGUAU: 2.04
CAGUGAUCAUCUUGUUCAUCUUGUUCAGUCCUUUCUUGUGUGAUUGGAAUUAUUCAUCCCCUUUGAAAGAUGAGAAGGUUGAGAUGCAAAGAGUCUACCUUUCCAAGUUC: 0.436
UAAGGAACUUCCCAGAUGAUUAGAAGUACAAGACUUGCUUUGUUUUGUUUUCUUUGGUUUUUGUGUUUUUUUGGAGUUUGGCUGGAAGAGGUUUCUGUAAACCUGAAGCC: 1.26
CUUGGGAGCGAAGAAGACUAGGCUUUUACUGUUCUCUGAUAUUCUAGAAGCAGACGAUCUCGGGCUCCAAGUAUUUCAGAAUGAUUUAAAAAGUCAUGCCACAGGAAGGG: 0.31
GGAUAAAUGUGGUGUUCCUAGCAGGCUGCUUGUUGAAAUUCCAGUGUUUUAAAAAUAUUUUUGUUGUGUUGCAGUCGUGAACAUUUUCCAUUUCUGAUGUUGUCUGCCCA: 0.848
AACCUUGCAUUCCAUCAAGCCAAAAUAGCACACUCUGUUAGAGGAGAUACAUGUUUAAGAUAGAAUUGGAGGGAAGGACAAAAACAGAAAAAUGUUUGGGCUUUUAAGCC: 0.396

Series 2 — technique: protein binding microarray; form: double-stranded DNA, one strand shown; sample: in vitro; tested at: not given; reference: not given; direction: higher = stronger binding; quantity: E-score
Target: Histone acetyltransferase KAT6A, winged helix 1, GST fusion (KAT6A, Homo sapiens, UniProt Q92794, residues 1-85)
Notes: 8-mer, flanks averaged, mean of 2 arrays, mostly near background
Target sequence (chain): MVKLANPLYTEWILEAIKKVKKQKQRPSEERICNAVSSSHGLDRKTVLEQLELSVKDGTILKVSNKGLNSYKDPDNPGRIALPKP
GTTTATAA: 0.0521
GATGCCGC: 0.367
AAACTACT: -0.0678
ACGACGGA: 0.272
ATGCTGCC: -0.0409
AATGCATC: -0.289
CGTAAACG: 0.271
ACGTTGCA: -0.25
CGCAGATA: 0.00596
CCCTTGTC: -0.151
CGGATCAC: 0.0429
TAAAACGA: -0.208
AGGGTTTG: -0.119
CCGCTTAC: 0.154
CGTTTTAG: 0.0264
ATTCGGAA: 0.0178
AAGAACTC: -0.138
CCTATGAA: -0.0124
CCTCACGA: -0.12
ATACTGCG: 0.186
GTAGGTCA: -0.132
ATGACAAA: -0.178
CATAAGCG: 0.121
ATTTCCGG: 0.162
CTCTAATA: -0.207

Series 3 — technique: universal PBM; form: double-stranded DNA, one strand shown; sample: in vitro; tested at: 600 nM; direction: higher = stronger binding; quantity: E-score
Target: Sal-like protein 4, full length isoform A (SALL4, Homo sapiens, UniProt Q9UJQ4, residues 1-1053)
Chain of UniProt Q9UJQ4 (whole entry, looked up): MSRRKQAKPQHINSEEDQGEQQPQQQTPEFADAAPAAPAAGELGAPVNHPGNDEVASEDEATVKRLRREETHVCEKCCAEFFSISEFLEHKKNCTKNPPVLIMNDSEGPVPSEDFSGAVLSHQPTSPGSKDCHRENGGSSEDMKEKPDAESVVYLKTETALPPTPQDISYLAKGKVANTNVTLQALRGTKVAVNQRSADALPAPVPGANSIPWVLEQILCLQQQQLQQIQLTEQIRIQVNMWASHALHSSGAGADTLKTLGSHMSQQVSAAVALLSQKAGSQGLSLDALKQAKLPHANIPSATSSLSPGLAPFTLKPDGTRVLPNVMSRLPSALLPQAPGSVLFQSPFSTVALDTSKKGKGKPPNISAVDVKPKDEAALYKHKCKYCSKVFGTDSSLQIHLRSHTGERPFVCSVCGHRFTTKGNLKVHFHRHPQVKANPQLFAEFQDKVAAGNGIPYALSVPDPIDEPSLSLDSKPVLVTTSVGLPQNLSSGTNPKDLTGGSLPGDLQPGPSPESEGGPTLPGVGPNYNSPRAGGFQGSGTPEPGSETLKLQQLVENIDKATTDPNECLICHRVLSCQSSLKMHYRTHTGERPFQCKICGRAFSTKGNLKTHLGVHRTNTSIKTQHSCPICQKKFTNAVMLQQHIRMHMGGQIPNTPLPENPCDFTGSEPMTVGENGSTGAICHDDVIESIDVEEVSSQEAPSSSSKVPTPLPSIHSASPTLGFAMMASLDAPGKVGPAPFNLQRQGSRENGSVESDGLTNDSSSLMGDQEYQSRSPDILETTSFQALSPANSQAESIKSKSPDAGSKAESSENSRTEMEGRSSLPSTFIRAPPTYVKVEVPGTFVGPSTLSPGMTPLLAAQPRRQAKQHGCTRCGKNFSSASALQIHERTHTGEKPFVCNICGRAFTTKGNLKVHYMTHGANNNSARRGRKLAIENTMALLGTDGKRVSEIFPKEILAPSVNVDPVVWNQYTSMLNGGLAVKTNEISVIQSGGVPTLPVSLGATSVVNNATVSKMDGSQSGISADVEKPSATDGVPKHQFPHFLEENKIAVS
Notes: 8-mer, flanks averaged, mean of replicates
GCAGTAAA: 0.106
CCGCCTTA: -0.105
CATTATCA: 0.294
CTACCTGC: -0.167
ACACTCAT: 0.262
ACTTTCAG: 0.0361
CTTATTGA: 0.278
GAAGGGCC: -0.339
GCTCAGCC: -0.316
AGCGAGGG: -0.0958
ACCCGCCC: -0.192
AACCAATA: 0.25
CCACAGAC: -0.226
CACATGGC: -0.107
CCTCTATA: 0.122
TGAGAAAA: 0.19
TACAGGGA: -0.171
CCCCCCGA: -0.272
AGACAAAA: 0.0659
TCTTTGAA: 0.15
ACCCGGTC: -0.413
CTGCCAGA: -0.186
ACCATGGG: -0.339

Series 4 — technique: aptamer microarray, sandwich; form: DNA with 2'F-ANA; sample: in vitro; tested at: 200 nM; with: Cy3 exosite-II aptamer, 400 nM; direction: higher = stronger binding; quantity: mean fluorescence intensity; sequence: GGTTGGTGTGGTTGG
Target: Prothrombin, mature alpha-thrombin (F2, Homo sapiens, UniProt P00734)
Notes: whole 15-mer aptamer, many near background
2'F-ANA at 2 3 7 8 9 10 11 12 13 15: 394 a.u.
2'F-ANA at 1 3 4 5 6 8 9 11 12 13 15: 69.2 a.u.
2'F-ANA at 1 2 3 4 5 7 9 12 15: 115 a.u.
2'F-ANA at 1 3 4 5 6 14: 56.9 a.u.
2'F-ANA at 2 7 8 10 12 13 14: 94.1 a.u.
2'F-ANA at 3 6 10 12 13 15: 482 a.u.
2'F-ANA at 2 5 7 8 9 11 13 14: 83.7 a.u.
2'F-ANA at 1 2 6 7 8 9 11 12 14 15: 70.8 a.u.
2'F-ANA at 1 4 9 10 11 12 13 14: 53.3 a.u.
2'F-ANA at 1 2 5 6 7 9 13 15: 51.2 a.u.
2'F-ANA at 1 3 4 6 7 8 9 10 12 13 15: 77.9 a.u.
2'F-ANA at 2 11 13 14 15: 196 a.u.
2'F-ANA at 2 3 4 5 6 8 10 13: 55.2 a.u.
2'F-ANA at 1 3 4 5 6 7 8 9 11 13 15: 49.5 a.u.
2'F-ANA at 4 11 12: 458 a.u.
2'F-ANA at 1 2 3 6 10 12 13 14: 51.5 a.u.
2'F-ANA at 2 5 6 7 9 10 13 14 15: 46.9 a.u.
2'F-ANA at 2 4 5 8 10 12 15: 47.4 a.u.
2'F-ANA at 1 5 6 12 13 14 15: 49 a.u.
2'F-ANA at 1 3 4 5 7 10 12 13 14: 49.7 a.u.
2'F-ANA at 1 2 4 10 15: 54.9 a.u.
2'F-ANA at 1 2 3 5 8 9 12 13 14 15: 51.2 a.u.
2'F-ANA at 1 3 4 6 7 8 9 11 12 15: 327 a.u.
2'F-ANA at 2 4 6 9 10 11 13: 67.3 a.u.

Repeated from above (series 2):
GTTTATAA: 0.0521
GATGCCGC: 0.367
ATGACAAA: -0.178
CCGCTTAC: 0.154
GTAGGTCA: -0.132
TAAAACGA: -0.208
CGGATCAC: 0.0429
ATACTGCG: 0.186
AAGAACTC: -0.138
CATAAGCG: 0.121
ACGACGGA: 0.272
CGTTTTAG: 0.0264
